Measured values from different studies.
Numbered parts are unrelated; each lists some results of a single study.

Set 1 — method: RNA Bind-n-Seq; molecule type: RNA; matrix: in vitro; tested at: not given; baseline: input RNA pool; direction: higher = stronger binding
Target: RING finger protein unkempt homolog, zinc fingers 1-6, GST-SBP tag (UNK, Homo sapiens, UniProt Q9C0B0, residues 30-357)
Chain of UniProt Q9C0B0 (30-357, looked up): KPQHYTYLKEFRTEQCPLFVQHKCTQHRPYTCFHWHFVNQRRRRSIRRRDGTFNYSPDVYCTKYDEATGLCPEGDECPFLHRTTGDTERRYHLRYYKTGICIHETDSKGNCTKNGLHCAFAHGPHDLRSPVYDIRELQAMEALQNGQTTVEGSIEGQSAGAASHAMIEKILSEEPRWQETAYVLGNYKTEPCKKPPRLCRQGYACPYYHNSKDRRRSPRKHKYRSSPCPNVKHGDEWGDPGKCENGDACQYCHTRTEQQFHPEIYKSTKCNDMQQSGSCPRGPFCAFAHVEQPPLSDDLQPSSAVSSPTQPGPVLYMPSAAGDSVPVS
Notes: RNA with constant flanks, human and mouse sites, ends assumed
Constant ends, left off below: GGGAGUUCUACAGUCCGACGAUC … CAACAGAGGAUUGAGCAUCA
| Sequence | bound/input enrichment [ratio] |
| --- | --- |
| AGAGGCUGAGAGUCCCCCCCACGGUUUUUUUUUUUCUUCAUUUAGAUGUAACAAGCCUAGUAGUUUAUGUUCAUCAAUUGUCUGUAUAUCUAUAUUUUACCCAUGUACUCUUUUGAUGUA | 14.4 |
| GAAGUAACCAUGGAAACAGACAAGAAAACUCAUUAUGGGCUACUCUUUGAUGAGUUUCAAGGCCUUUCACAUCUAGAAGCUCUGGAGAUGCUUUCCCGAGAAAGUGAGAUAAAGGUGAAA | 0.317 |
| UCAUUGGCUUCAAAUCCAGCACCUUUCCCGGCUGGUGCUCGUGACCCAAGUAUGGCUUCUUUUCCAAGAGGGAUGAAUCCCACUGGCACAGGUGCAGUUUCUUUCCCAAGGCCUGGUGGC | 0.127 |
| CCUGGUGGGCAUGUGGGACGUUUCUGCAUUUGGACUGAAAGUGCUUUCCGGAAGUUAGAUGAAUUGUACGGCACUUGGCGUAAAGCCGCUUCCCUCAAGAGUAACUACAAUCUUCCCAUG | 0.387 |
| ACUGAGCAGAAUGAAGAGUUGAGUAUCUUAUAUCCAGCUGCCAUUGUGACUAUUGAUGGAUUUAGCCUUUUUCAAUCUCUUCGUGCUUGUCGAAAUCAGGUAGCAAAAGCUGCAGCAUCA | 0.27 |
| UAAGACAGGCAUCAGUAUGUCCCUUCUUACCGUAAUAGAAAAACUGAGAGAAAGGACAGACCAGAAUGCAUCAGAUGAUGACAUUUUGAAAGAGUUGCAGGACAAUGCCCAGUGUCAGCC | 0.157 |
| AAGCAGAAGUUGAUGCUGAAAGAGAGCUCCGCUGGGGACAGUUACUAUGACUACAUUUGUAUCAUUGACUUUGAGGCUACUUGUGAAGAGGGGAACCCAGCUGAGUUCCUACAUGAAAUC | 0.195 |
| GUGAUUGAGAGUUCUGAAUCCCUGGACUGUCAGUUACUGGCUGUCACUCACGCAGGUGUAAGGCUGUAUUUCAGCACUUGUCCGUUUAGACAGCCAUUAGCUCGGCCGAAUACACUGACA | 0.138 |
| GGACAGACGUGUGGAAAACAUAAAUGUCCAAGAAACACUUUUGUCUUAAUGGUCUGUGGAAAUAGGUUCACUCCUUGAAAUUAAGGUCUAAAAGGUGUUUUGUGGUUUCUGUAUUUCUUC | 0.218 |
| UCCAGGACUCUCAAGCUGGCAUCAUAUUAUUUGUUAUUUAAAAGACACAAUUAUUUUAGGUAGAUCUUUUUUUUUAAUGAGGUGGGGUAAGGCUGUGACUUUUGAUCUAAACAAAAGAUC | 15.2 |
| GUACUGCUGGUAUUGUACCAGGAACAUUUUCUUUUAUUGUUACUUGCUUUUUAAACUUUGUUUAGCCACUUAAAGAAAACCUGCUCAUGGCACAACUUGCCUCAAAUCCAUUCCAAGUUG | 0.475 |

Set 2 — method: aptamer microarray, sandwich; molecule type: DNA with 2'F-ANA; matrix: in vitro; tested at: 200 nM; together with: Cy3 exosite-II aptamer, 400 nM; direction: higher = stronger binding; sequence: GGTTGGTGTGGTTGG
Target: Prothrombin, mature alpha-thrombin (F2, Homo sapiens, UniProt P00734)
Notes: whole 15-mer aptamer, many near background
| Modification | mean fluorescence intensity |
| --- | --- |
| 2'F-ANA at 1 11 13 15 | 139 a.u. |
| 2'F-ANA at 4 6 8 14 | 91.5 a.u. |
| 2'F-ANA at 1 3 4 5 7 8 10 11 | 113 a.u. |
| 2'F-ANA at 3 4 6 9 10 11 13 14 15 | 153 a.u. |
| 2'F-ANA at 1 6 7 10 11 12 13 | 90.3 a.u. |
| 2'F-ANA at 2 4 6 8 10 13 | 64.3 a.u. |
| 2'F-ANA at 3 5 6 7 9 14 15 | 48.1 a.u. |
| 2'F-ANA at 1 5 7 13 14 15 | 45.2 a.u. |
| 2'F-ANA at 3 4 5 6 7 9 10 12 14 15 | 48.8 a.u. |
| 2'F-ANA at 1 4 7 9 10 14 | 43.4 a.u. |
| 2'F-ANA at 2 3 8 9 10 11 12 13 14 | 274 a.u. |
| 2'F-ANA at 2 4 8 12 13 | 503 a.u. |
| 2'F-ANA at 2 3 4 5 7 8 12 15 | 249 a.u. |
| 2'F-ANA at 1 2 5 6 7 8 9 10 12 | 48.1 a.u. |
| 2'F-ANA at 1 2 6 8 9 10 11 13 15 | 53.6 a.u. |
| 2'F-ANA at 2 4 5 9 14 15 | 54 a.u. |
| 2'F-ANA at 1 2 3 4 7 8 12 | 562 a.u. |
| 2'F-ANA at 3 4 5 7 8 9 10 11 15 | 84.8 a.u. |
| 2'F-ANA at 1 2 6 8 12 14 | 146 a.u. |
| 2'F-ANA at 5 9 10 11 13 14 15 | 55.7 a.u. |
| 2'F-ANA at 4 6 9 12 14 15 | 91.1 a.u. |
| 2'F-ANA at 1 3 5 9 10 12 13 15 | 57.7 a.u. |
| 2'F-ANA at 2 5 7 8 12 14 15 | 50.9 a.u. |
| 2'F-ANA at 1 2 3 4 6 9 11 | 123 a.u. |
| 2'F-ANA at 1 3 4 5 10 11 13 | 48.6 a.u. |

Set 3 — method: EMSA with sequencing; molecule type: double-stranded DNA, one strand shown; matrix: in vitro; tested at: 10 and 20 nM; baseline: negative control set to 0; direction: higher = stronger binding
Target: Hepatocyte nuclear factor 3-alpha (Foxa1, Mus musculus, UniProt P35582, residues 1-468, full length assumed)
Notes: whole designed probe, mean of two concentrations, ends assumed
Constant ends, left off below: GTGAGCGGTGCCCATTGATGGGGAAC … TTTCACTGGGATCGTGGGGAC
Target sequence (chain): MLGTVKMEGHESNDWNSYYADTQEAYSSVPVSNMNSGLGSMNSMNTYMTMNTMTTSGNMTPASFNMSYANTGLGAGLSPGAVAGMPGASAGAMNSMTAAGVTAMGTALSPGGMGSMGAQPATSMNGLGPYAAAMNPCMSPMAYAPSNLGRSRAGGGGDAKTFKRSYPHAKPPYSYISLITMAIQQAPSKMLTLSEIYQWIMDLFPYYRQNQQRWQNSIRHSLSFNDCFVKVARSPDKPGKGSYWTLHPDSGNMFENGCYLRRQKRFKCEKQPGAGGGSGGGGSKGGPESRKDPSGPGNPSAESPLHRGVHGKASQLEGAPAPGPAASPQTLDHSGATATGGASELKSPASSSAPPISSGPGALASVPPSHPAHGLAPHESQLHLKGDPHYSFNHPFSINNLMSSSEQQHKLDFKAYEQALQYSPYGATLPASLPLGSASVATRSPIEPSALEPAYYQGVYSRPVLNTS
| Sequence | normalised bound fraction |
| --- | --- |
| AACGCTGTAGGTCAGAAAGATGTGCTTACCTTCACACAGAGCTGCAGAAATCAGGAAGGCTGCCAAGAGAGCCACGGCCAGCTTGGAAGTCATGTTTACACACAGTGAGATGGTTCCTTCCGGTGGTTTCTTCCTGGCTCTTGTCCTAGAAGCTTGTGTGCTCTGCTGTCTCTGAAAGTTTGTGCCTTATGGA | 0.248 ratio |
| GAGCTGCTTGCAATTGAGTTGTATGTATGCTTCCACTTAATACGTCCTGCCGAGCCTGTAAGCCAACAGGAATCTCACTTCCGGCGCCCTCTGTGTTTACCTACTCTCTTTTTATGTCTTATTCCCAGAATGACTGGGGACCAAAGGAATCCTTTGCAGGAGTTTTCTCCAGACAGACAGTTCCACATGCTAG | 0.249 ratio |
| TAGGCTTCTCGAGTAGAGAAACAAATGACAAATGGCTAAAATGGGTCACCACACACAAATCATGGTTTCATTATAGCATATTTCAAATGTTCTAAATTGCTCACAATTCTACTACTTCCACTAGACACTAATCTTTTCCAAACAAGGCCTTTTTTGTTACTAATGAATCCCTCTTCCTTTCCCCATTGATCAC | -0.0304 ratio |
| TAATCAGCTATTCCTCTTTAAATGGGGACATCACATCTTTCTCTTGCAGATGTCACAGACAAATGAAAGTTTGTATCCTGCATTACAAGTCATGTTTACTTAGGATTTTTACAAAATAGCTATTTAAAAAAAAACTTAGAGAATAACAATGCACATTGCACAGAATTTTAGCAGATAATTTTCTGTGCAGTAG | 0.389 ratio |
| AATTTCACTAATTACTGATTCTATGAATAGGATAATGATTATGAAGAAAAATGCAAAAGTACAATCTCTTGAGCTGAAGAAAAAAATACAGAGTAATCTTGCTCCTCATAAGAATACTGTCTAAATCGAATGACCAACAAGACTGATTTGATGTTTGGTTGCAGAGATACTAGTCAAGTTTATTTTAATTCTT | 0.00742 ratio |
| AGTCTTTACAAATCAAAGAGACAGCACTGCTTTTGCTGAAGCGGGACAAAAATACCTCAAGGCACAACTCCTCCGTGCGCTTATCCCCTGCAGTGTAATCTGGGCCAATTCAATGGGTATTGTTTCCTTTACTTAGGCAGGATGATTTCCCTCAACTCTTAAGGAATCCAGGACTTTCCAGACCATTTCATCA | -0.0628 ratio |
| GCATAATAAATTGAGAAAAAAATACTCAATACACTAACTGTCCTTGTCTCTAGTTTGCTCAATTGTGTTATTTCCTGCAGGTATTTAAACAAAGTAAATAGCACTATTTGCCAAGGAGCAATGTAAAAAGTTTCCTGACAAGATTCAACAAGGTTTGTCCAGACGATGAGCAAACACAGCTTGCTCAGGCACA | 0.417 ratio |
| TTCCTTCTGCAGCTTTCCTCCCCAAACTCCACTGGTGCTCATGTTGACTCATCTGTCATTTTCACTTCCTTTCTGGCAGAGTAGCTGAGCTGAGCAAACAACAGAGCAGGTGGACAATAGTCTGGCCTCTGCATGAAGCCACCAGTTCACAGGAAATACAGGGGGCAGAGGAACATGTTAAGTGGCACCTCAG | 0.317 ratio |

Set 4 — method: universal PBM; molecule type: double-stranded DNA, one strand shown; matrix: in vitro; tested at: not given; direction: higher = stronger binding
Target: Sal-like protein 4, full length isoform B (SALL4, Homo sapiens, UniProt Q9UJQ4-2, residues 1-616)
Notes: 8-mer, flanks averaged, mean of replicates
| Sequence | E-score |
| --- | --- |
| GGCGAACA | -0.0863 |
| CCCTAACC | -0.226 |
| GAAGAAAC | -0.0851 |
| TCTCAAAA | 0.262 |
| CTACTCAC | -0.117 |
| TAGGTTAA | 0.149 |
| AATAGCCC | -0.0284 |
| GGCATCAA | -0.0657 |
| GCTGACAA | 0.0364 |
| ATTGCCAC | 0.0945 |
| ACAGTTCG | -0.0164 |
| CGTAGGCC | -0.0642 |
| ATTTGCAC | 0.139 |
| CGTGTACA | 0.107 |
| CCCCCAAA | -0.0275 |
| AACGGCAA | 0.0653 |
| ACCACTTC | 0.0376 |
| GCGACAGA | -0.214 |
| CGATACAA | 0.138 |

Set 5 — method: protein binding microarray; molecule type: double-stranded DNA, one strand shown; matrix: in vitro; tested at: not given; baseline: not given; direction: higher = stronger binding
Target: Histone acetyltransferase KAT6A, both winged helices, GST fusion (KAT6A, Homo sapiens, UniProt Q92794, residues 1-181)
Notes: 8-mer, flanks averaged, mean of 2 arrays, mostly near background
Residues (chain): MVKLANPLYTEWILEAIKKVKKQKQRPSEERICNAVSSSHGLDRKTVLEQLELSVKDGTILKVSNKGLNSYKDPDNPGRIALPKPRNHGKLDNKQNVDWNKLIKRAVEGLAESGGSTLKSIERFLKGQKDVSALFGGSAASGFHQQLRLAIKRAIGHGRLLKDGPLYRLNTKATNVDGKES
| Sequence | E-score |
| --- | --- |
| ACCCAGGG | -0.195 |
| AGGTTGAG | -0.107 |
| GGCACGAA | -0.119 |
| ATACCGAC | 0.0411 |
| CGGAAAAC | 0.18 |
| CAAGCACC | -0.153 |
| AGTGTCCC | -0.0314 |
| CACGAGGA | -0.169 |
| AGGAAAGA | -0.221 |
| GCCCATCA | -0.125 |
| AGGCTTGG | -0.0978 |
| AAGTCAGC | -0.107 |
| AGGGTCAA | -0.175 |
| GTCTTATA | -0.0204 |
| CATCATAC | -0.0425 |
| AAGAACAT | -0.119 |
| CGCTGTGA | -0.0293 |
| CGGTCGGA | 0.11 |
| CACCTCCC | -0.0909 |
| CCTGTGTA | -0.0244 |

For quick reference, copied from above (set 4):
| Sequence | E-score |
| --- | --- |
| ACAGTTCG | -0.0164 |
| ACCACTTC | 0.0376 |
| AATAGCCC | -0.0284 |
| GCGACAGA | -0.214 |
| ATTGCCAC | 0.0945 |
| CGTAGGCC | -0.0642 |
| AACGGCAA | 0.0653 |
| GAAGAAAC | -0.0851 |
| GCTGACAA | 0.0364 |
| CCCCCAAA | -0.0275 |
| TCTCAAAA | 0.262 |
| CGATACAA | 0.138 |
